Results pooled from the literature.
Each numbered part is a random draw from the data of one study; scales do not carry over between parts.
Chain of UniProt P22612 (whole entry, looked up): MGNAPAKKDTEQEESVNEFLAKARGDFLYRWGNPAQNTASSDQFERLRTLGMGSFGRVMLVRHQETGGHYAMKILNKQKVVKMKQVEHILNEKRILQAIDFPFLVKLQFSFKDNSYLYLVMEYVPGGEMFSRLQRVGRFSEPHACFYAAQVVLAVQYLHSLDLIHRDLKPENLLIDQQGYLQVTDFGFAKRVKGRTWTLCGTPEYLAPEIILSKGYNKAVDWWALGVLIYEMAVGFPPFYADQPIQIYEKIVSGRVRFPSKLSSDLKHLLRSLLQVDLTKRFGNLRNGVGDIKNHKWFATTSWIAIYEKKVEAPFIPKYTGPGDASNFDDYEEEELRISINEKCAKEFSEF
Chain of UniProt Q16816 (whole entry, looked up): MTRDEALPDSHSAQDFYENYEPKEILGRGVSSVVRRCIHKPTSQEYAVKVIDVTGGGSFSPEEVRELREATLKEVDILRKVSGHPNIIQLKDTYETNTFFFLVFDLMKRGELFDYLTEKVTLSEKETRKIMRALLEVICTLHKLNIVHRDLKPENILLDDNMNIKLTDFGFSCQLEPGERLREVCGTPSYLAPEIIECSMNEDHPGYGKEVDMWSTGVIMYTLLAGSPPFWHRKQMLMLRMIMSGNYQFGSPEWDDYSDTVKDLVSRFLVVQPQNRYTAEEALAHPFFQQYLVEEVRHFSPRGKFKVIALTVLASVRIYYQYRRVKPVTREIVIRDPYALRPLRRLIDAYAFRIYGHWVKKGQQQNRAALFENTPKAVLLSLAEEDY
Chain of UniProt P06493 (whole entry, looked up): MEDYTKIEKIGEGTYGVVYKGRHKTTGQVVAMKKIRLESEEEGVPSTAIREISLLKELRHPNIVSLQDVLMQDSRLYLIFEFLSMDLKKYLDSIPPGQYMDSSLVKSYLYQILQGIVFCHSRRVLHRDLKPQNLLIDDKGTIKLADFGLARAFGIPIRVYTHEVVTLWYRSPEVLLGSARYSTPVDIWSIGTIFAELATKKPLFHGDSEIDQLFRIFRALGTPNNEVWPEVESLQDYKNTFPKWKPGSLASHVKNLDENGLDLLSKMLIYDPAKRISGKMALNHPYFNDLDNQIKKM
Chain of UniProt Q16644 (whole entry, looked up): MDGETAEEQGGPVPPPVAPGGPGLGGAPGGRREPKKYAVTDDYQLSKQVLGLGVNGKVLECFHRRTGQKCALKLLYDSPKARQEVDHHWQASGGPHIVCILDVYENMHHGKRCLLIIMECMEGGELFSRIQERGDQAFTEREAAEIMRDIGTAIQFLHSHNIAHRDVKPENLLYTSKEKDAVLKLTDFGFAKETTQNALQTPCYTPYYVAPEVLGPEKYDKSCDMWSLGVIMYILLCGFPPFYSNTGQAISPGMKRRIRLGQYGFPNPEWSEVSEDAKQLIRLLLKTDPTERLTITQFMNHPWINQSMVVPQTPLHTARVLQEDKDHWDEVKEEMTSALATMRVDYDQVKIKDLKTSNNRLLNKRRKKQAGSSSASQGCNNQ
Chain of UniProt O43781 (whole entry, looked up): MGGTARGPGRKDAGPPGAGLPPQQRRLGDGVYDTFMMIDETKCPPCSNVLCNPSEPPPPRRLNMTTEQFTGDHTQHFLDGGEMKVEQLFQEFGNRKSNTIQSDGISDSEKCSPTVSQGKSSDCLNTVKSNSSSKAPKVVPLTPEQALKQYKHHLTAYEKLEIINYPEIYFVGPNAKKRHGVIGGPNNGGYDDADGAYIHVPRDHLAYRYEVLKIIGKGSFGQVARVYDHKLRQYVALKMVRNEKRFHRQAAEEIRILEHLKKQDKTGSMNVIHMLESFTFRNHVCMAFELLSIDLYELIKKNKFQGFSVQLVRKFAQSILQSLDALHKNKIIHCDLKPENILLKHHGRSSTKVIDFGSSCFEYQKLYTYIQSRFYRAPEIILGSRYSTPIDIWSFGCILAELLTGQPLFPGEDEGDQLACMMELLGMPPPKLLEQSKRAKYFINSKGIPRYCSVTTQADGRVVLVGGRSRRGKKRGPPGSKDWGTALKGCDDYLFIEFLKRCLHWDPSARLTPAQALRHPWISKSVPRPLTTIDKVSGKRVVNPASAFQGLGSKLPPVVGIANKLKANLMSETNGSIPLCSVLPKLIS
Chain of UniProt P54764 (whole entry, looked up): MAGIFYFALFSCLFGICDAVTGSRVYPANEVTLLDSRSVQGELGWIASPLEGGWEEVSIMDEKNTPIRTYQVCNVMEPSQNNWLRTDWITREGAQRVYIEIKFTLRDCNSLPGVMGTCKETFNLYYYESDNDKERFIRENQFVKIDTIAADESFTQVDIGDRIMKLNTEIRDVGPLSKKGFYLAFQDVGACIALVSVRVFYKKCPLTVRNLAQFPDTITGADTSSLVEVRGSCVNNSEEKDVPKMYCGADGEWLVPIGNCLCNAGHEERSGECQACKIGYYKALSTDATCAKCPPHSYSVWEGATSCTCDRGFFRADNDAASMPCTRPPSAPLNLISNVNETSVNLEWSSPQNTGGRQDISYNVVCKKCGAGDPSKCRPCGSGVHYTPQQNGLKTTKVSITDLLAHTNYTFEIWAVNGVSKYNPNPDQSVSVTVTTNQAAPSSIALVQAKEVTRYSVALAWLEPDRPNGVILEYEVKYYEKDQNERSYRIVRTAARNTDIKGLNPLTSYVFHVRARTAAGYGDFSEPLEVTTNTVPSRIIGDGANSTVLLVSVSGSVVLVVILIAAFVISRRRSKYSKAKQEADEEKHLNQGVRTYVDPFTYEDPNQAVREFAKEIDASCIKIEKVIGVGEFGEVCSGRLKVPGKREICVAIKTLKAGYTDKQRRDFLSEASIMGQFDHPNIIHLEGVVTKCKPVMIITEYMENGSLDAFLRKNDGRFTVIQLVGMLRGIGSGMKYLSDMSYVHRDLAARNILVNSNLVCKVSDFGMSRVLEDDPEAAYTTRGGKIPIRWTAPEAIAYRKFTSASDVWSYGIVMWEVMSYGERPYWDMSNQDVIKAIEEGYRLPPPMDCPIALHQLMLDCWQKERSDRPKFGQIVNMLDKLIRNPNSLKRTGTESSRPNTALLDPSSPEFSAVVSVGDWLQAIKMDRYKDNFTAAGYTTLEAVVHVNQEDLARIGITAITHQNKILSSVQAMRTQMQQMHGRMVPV
Chain of UniProt Q9UK32 (whole entry, looked up): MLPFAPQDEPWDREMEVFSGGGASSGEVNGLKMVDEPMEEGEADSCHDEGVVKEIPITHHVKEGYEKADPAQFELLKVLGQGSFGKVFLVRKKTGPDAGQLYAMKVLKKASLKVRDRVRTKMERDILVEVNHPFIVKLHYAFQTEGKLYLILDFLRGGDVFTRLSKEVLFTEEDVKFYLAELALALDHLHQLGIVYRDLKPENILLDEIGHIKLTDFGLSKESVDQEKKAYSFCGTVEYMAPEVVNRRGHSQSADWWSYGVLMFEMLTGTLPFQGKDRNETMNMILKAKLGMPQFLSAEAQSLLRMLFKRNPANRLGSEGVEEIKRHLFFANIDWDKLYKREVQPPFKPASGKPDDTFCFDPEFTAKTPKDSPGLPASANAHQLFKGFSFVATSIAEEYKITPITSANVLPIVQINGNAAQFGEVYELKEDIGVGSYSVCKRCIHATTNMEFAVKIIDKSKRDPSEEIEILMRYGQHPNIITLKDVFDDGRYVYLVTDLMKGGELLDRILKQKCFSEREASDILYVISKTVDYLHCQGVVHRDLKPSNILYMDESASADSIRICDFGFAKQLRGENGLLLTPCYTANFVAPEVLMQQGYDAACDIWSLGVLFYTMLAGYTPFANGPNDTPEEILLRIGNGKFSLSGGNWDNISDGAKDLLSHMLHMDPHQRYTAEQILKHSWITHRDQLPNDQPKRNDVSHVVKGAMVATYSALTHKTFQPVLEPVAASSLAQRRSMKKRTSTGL
Chain of UniProt Q9UEE5 (whole entry, looked up): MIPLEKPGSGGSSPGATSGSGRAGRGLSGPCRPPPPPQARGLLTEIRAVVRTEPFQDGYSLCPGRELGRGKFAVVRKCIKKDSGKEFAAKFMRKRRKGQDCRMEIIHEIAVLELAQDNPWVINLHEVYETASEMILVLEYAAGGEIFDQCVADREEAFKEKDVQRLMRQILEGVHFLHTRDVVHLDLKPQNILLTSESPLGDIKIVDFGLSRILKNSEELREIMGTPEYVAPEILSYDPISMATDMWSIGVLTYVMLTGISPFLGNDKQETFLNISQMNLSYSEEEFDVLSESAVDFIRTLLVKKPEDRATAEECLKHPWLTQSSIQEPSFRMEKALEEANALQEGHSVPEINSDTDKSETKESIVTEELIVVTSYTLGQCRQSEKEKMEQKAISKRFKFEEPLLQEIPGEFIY
Chain of UniProt P11802 (whole entry, looked up): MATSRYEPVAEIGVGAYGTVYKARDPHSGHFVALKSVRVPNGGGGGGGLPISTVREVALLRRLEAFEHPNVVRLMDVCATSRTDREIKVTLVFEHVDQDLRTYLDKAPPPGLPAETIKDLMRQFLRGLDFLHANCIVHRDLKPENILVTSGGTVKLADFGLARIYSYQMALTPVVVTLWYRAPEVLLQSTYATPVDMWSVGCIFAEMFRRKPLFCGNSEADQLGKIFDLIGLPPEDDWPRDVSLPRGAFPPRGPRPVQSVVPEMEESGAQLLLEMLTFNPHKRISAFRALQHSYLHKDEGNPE

Sample 1 — host: cancer patients; medium: plasma; route: oral; time: cycle 0 day -3; setting: single dose
SMILES: COc1ccc(-c2c(Nc3ccccn3)[nH]c3c(C4=CCCCC4)c(-c4ccccc4)nn3c2=O)cc1
| conditions | AUC(0-inf), geometric mean |
| --- | --- |
| 50 mg | 11900 ng·h/mL |
| 400 mg | 33900 ng·h/mL |
| 100 mg | 46500 ng·h/mL |

Sample 2 — SMILES: CCOc1nc(NC(=O)Cc2cc(OC)ccc2OC)cc(N)c1C#N; effect on: enzyme activity; mode: inhibitor; concentration: 0.5 µM; reference: control
| target | remaining activity [%] |
| --- | --- |
| RPS6KA5 (Homo sapiens, UniProt O75582) | 101 |
| EPHB1 (Homo sapiens, UniProt P54762) | 94.4 |
| DYRK3 (Homo sapiens, UniProt O43781) | 114 |
| Cyclin-dependent kinase 6, with cyclin D3 (CDK6, Homo sapiens, UniProt Q00534) | 98.6 |
| WNK3 (Homo sapiens, UniProt Q9BYP7) | 93.3 |
| EPHA4 (Homo sapiens, UniProt P54764) | 99.1 |
| RPS6KA6 (Homo sapiens, UniProt Q9UK32) | 94.3 |
| PDPK1 (Homo sapiens, UniProt O15530) | 94.6 |
| STK17A (Homo sapiens, UniProt Q9UEE5) | 102 |
| TSSK2 (Homo sapiens, UniProt Q96PF2) | 91.2 |
| Cyclin-dependent kinase 1, with cyclin B (CDK1, Homo sapiens, UniProt P06493) | 108 |
| PRKACG (Homo sapiens, UniProt P22612) | 104 |
| PHKG1 (Homo sapiens, UniProt Q16816) | 94.2 |
| MAPKAPK3 (Homo sapiens, UniProt Q16644) | 101 |
| Cyclin-dependent kinase 4, with cyclin D3 (CDK4, Homo sapiens, UniProt P11802) | 95.2 |
| AXL (Homo sapiens, UniProt P30530) | 105 |
| STK16 (Homo sapiens, UniProt O75716) | 94.1 |
| HIPK4 (Homo sapiens, UniProt Q8NE63) | 106 |
| MAP4K4 (Homo sapiens, UniProt O95819) | 94.6 |
| EPHB4 (Homo sapiens, UniProt P54760) | 98.3 |

Sample 3 — cell line: A-375; concentration: 100 µM; time: 18 h
| SMILES | viability [%] |
| --- | --- |
| O=C1CN2Cc3c(ccc(Cl)c3Cl)N=C2N1 | 94.3 |
| CCN(CC)CCNC(=O)c1ccc(NC(C)=O)cc1 | 88 |
| CCn1nc(C(=O)O)c(=O)c2cc3c(cc21)OCO3 | 81.2 |
| COc1cc(NS(=O)(=O)c2ccc(N)cc2)ncn1 | 96.7 |
| CC(C)NCC(O)COc1ccc(COCCOC(C)C)cc1 (racemic) | 94.9 |
| CN1C(C(=O)Nc2ccccn2)=C(O)c2sccc2S1(=O)=O | 106 |
| N#CC(c1ccc(Cl)cc1)c1c(Cl)cc(-n2ncc(=O)[nH]c2=O)cc1Cl (stereo not drawn) | 35.9 |
| NC(=O)N/N=C/c1ccc([N+](=O)[O-])o1 | 96 |
| CC(CCc1ccc(O)cc1)NCC(O)c1ccc(O)cc1 (stereo not drawn) | 89.2 |

Sample 4 — effect on: ligand displacement; concentration: 10 µM
Target: Alpha-2B adrenergic receptor (ADRA2B, Homo sapiens, UniProt P18089)
Chain of UniProt P18089 (whole entry, looked up): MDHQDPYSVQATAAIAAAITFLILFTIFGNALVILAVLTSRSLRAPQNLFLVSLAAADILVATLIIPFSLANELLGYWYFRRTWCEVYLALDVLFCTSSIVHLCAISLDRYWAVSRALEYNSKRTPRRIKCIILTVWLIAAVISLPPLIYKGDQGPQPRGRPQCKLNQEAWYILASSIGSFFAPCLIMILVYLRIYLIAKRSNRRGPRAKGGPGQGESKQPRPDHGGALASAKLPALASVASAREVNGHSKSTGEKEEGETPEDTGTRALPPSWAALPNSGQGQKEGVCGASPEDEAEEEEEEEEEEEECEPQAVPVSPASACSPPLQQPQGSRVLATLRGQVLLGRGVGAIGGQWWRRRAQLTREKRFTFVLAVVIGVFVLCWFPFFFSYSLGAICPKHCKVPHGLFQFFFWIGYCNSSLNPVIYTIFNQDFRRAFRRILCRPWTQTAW
| SMILES | inhibition [%] |
| --- | --- |
| COc1cc(N[C@@H]2CCCC[C@]2(O)C(F)(F)F)ccc1F | -0.18 |
| CC1=C(C#N)C(c2ccc3[nH]nc(C)c3c2)C(C#N)=C(C)N1 | 8.04 |
| C[C@@H]1CN(c2cc(-c3n[nH]c4ccc(OC5(C)CC5)cc34)ncn2)C[C@H](C)O1 | 6.1 |
| Cc1ccc(-c2cnc([C@@]3(O)CC[C@H](C(=O)O)C(C)(C)C3)s2)cc1Nc1cccc(C(F)(F)F)n1 | 27 |
| CNC(=N)NCCC[C@H](NC(=O)[C@H](CC(C)C)NC(=O)NNC(=O)[C@H](Cc1ccccc1)NC(=O)[C@H](CO)NC(=O)[C@H](CC(N)=O)NC(=O)[C@@H](Cc1ccncc1)NC(=O)[C@H](N)Cc1ccc(O)cc1)C(=O)N[C@@H](Cc1ccccc1)C(N)=O | 17.6 |
| CO[C@H]1CC[C@H](CNc2ccc(S(=O)(=O)NC(=O)c3ccc(N4CCN(CC5=C(c6ccc(Cl)cc6)CC(C)(C)CC5)CC4)cc3Oc3cnc4[nH]ccc4c3)cc2[N+](=O)[O-])CC1 | 33 |

Sample 5 — host: human; medium: microsomes or S9; concentration: 2 µM; time: 0.5 h
| Compound | remaining compound [%] |
| --- | --- |
| CCc1nn(CC(=O)N2CCC(N3CCCCC3)CC2)c(=O)c2cc3sccc3n12 | 89.5 |
| CC(C)(C)OC(=O)N1CCC(n2cc(-c3cnc(N)c(-c4nc5ccccc5o4)c3)c3ccccc32)CC1 | 45.7 |
| Cc1nc(OCCN2CCOCC2)c(C#N)c2c1COC(C)(C)C2 | > 100 |
| Cc1nc(O)cc(COCc2ccccc2)c1C#N | 38.2 |
| O=c1c2c([nH]n1-c1nc3ccccc3[nH]1)CCCC2 | 83.3 |
| CN(C)c1ccc2oc(-c3cc(-c4cnn(C5CCNCC5)c4)cnc3N)nc2c1 | 92.8 |
| CCc1ccc(/C=N/Nc2nn3cnnc3c3ccccc23)cc1 | 20.6 |

Excerpt of the above (sample 2):
| target | remaining activity [%] |
| --- | --- |
| DYRK3 (Homo sapiens, UniProt O43781) | 114 |
| Cyclin-dependent kinase 6, with cyclin D3 (CDK6, Homo sapiens, UniProt Q00534) | 98.6 |
| WNK3 (Homo sapiens, UniProt Q9BYP7) | 93.3 |
| EPHA4 (Homo sapiens, UniProt P54764) | 99.1 |
